Results pooled from the literature.
A part holds a random share of what one study measured.
Chain of UniProt P57078 (whole entry, looked up): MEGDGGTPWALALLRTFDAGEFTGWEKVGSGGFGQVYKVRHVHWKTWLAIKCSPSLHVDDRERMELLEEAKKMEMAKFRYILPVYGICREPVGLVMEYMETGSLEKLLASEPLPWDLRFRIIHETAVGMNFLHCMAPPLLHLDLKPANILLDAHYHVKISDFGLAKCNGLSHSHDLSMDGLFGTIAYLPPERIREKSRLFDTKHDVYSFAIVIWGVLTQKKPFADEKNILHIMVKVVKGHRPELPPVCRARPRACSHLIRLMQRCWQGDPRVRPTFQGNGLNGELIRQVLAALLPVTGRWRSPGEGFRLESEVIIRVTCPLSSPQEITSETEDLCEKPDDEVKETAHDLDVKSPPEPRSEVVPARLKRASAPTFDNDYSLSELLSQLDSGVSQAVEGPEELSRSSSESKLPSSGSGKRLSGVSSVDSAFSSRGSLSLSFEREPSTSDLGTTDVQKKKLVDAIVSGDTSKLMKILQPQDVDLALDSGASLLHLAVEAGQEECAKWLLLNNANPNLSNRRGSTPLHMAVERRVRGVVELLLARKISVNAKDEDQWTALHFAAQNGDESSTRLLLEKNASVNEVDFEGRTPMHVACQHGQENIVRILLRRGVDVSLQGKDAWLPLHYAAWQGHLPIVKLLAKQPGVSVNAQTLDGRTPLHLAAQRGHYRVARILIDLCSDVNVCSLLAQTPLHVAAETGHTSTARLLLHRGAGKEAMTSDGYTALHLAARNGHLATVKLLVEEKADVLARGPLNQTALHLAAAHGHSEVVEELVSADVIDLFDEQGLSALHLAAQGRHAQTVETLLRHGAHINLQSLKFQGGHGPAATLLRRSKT
Chain of UniProt P11802 (whole entry, looked up): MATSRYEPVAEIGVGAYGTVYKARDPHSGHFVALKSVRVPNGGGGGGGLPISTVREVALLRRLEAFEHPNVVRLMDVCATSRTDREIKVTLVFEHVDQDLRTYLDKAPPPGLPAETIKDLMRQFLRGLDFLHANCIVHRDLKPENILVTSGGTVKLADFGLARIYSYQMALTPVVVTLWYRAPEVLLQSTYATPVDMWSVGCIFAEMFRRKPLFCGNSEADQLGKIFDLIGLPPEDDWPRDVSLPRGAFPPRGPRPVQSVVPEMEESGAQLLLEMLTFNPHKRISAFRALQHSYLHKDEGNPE
Chain of UniProt Q96J92 (whole entry, looked up): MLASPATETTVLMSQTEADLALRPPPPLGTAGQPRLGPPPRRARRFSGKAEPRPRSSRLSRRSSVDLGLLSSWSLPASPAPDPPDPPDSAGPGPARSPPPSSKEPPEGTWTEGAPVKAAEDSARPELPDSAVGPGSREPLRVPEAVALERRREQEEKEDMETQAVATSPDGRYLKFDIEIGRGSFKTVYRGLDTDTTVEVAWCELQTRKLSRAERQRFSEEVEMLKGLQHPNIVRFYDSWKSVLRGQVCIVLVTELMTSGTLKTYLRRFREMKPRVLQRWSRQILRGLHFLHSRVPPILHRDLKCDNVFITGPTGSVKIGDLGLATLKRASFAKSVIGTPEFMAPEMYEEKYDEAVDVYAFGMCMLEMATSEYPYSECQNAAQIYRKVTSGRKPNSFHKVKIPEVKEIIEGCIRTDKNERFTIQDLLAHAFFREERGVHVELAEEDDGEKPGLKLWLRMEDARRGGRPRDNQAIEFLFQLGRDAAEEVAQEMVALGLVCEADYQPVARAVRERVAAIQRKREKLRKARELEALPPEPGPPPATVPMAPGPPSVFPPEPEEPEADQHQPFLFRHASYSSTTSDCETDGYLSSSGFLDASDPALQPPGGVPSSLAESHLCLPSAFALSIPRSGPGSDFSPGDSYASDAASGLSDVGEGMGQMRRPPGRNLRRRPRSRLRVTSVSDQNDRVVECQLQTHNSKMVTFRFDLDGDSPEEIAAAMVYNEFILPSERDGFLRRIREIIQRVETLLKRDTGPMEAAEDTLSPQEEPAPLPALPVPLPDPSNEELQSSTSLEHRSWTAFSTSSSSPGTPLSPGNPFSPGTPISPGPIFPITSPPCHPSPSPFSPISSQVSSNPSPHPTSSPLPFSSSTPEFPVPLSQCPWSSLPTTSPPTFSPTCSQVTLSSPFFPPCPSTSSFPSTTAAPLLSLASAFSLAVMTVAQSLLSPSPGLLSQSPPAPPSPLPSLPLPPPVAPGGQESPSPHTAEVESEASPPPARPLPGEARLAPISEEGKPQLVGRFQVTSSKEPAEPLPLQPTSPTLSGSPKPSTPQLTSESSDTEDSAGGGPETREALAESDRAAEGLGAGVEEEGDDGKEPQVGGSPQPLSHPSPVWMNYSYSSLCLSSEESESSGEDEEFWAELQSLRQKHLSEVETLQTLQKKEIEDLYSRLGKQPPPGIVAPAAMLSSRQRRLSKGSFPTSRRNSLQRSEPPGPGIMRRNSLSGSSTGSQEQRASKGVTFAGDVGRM

Series 1
Target: DNA polymerase theta, ATPase domain (POLQ, Homo sapiens, UniProt O75417)
Chain of UniProt O75417 (whole entry, unmodified, looked up): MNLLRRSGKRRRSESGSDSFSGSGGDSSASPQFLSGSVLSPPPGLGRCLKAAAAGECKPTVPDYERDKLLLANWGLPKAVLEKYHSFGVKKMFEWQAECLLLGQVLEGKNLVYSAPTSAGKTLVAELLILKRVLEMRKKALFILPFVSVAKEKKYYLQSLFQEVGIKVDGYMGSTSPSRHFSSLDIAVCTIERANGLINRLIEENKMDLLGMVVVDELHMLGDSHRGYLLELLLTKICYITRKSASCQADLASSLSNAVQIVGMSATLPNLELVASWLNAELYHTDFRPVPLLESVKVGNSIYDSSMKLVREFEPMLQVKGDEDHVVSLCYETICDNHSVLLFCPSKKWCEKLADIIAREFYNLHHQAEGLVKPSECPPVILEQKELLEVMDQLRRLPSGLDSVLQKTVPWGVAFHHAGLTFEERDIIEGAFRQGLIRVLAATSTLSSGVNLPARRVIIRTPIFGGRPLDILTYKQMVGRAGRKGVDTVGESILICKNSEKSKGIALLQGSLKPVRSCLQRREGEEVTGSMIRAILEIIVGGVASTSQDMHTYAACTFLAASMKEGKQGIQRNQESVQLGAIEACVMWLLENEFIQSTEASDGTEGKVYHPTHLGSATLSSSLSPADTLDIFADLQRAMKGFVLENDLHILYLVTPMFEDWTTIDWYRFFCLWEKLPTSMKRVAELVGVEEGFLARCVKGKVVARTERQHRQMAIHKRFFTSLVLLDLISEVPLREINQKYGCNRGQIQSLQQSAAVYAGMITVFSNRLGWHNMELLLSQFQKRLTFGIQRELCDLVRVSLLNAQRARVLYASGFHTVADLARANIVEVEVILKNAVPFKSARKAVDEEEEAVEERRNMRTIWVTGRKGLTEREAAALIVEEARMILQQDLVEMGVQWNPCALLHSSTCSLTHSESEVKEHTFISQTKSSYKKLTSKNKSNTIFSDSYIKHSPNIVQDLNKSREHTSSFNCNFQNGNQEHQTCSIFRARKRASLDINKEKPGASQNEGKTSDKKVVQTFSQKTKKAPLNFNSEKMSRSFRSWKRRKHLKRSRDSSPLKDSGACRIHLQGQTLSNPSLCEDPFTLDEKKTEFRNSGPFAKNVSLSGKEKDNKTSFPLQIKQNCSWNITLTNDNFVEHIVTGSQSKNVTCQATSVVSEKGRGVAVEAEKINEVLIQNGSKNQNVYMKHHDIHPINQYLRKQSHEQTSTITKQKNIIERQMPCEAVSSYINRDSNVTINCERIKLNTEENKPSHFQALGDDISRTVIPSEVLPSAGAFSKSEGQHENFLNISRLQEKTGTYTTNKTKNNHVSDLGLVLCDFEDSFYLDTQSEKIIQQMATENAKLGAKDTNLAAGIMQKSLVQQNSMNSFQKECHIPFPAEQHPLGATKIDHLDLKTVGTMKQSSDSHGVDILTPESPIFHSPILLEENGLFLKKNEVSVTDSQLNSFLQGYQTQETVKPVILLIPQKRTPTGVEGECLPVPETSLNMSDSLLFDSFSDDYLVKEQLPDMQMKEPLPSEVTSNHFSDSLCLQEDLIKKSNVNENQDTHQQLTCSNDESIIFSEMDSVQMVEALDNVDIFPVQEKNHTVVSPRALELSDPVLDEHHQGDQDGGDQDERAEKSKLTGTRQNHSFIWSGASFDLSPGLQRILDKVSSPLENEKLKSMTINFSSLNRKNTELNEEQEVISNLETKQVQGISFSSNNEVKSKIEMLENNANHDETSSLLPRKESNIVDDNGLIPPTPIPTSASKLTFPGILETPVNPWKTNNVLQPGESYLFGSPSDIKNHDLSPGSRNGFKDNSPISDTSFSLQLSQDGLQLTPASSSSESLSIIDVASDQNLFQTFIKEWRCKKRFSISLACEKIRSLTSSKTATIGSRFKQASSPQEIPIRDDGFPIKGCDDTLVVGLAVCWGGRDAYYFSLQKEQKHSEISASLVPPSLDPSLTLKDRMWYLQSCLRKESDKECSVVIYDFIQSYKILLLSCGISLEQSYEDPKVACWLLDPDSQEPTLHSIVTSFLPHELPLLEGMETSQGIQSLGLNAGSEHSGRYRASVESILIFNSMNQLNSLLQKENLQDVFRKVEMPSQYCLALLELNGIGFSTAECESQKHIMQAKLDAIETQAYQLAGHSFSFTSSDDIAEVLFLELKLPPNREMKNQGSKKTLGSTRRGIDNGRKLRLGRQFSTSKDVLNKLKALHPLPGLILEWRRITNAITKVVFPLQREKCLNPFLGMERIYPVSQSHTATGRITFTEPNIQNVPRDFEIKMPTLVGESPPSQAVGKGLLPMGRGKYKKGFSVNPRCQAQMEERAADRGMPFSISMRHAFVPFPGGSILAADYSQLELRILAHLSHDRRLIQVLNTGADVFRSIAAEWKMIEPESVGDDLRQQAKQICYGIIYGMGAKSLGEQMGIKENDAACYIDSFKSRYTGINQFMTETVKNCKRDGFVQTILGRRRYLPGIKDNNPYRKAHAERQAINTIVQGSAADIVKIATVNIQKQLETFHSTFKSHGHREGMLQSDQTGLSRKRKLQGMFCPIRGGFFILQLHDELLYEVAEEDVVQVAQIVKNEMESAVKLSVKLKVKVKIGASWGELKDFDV
Read-out: enzyme activity
Mode: inhibitor
Tested at: 77 µM
Reference: untreated
Measurement: remaining activity
Structure (SMILES) = C[C@@H]1O[C@@H](OC[C@H]2O[C@@H](Oc3c(-c4ccc(O)c(O)c4)oc4cc(O)cc(O)c4c3=O)[C@H](O)[C@@H](O)[C@@H]2O)[C@H](O)[C@H](O)[C@H]1O; value = 98.6%
Structure (SMILES) = CCOc1ccc(Cc2cc([C@@H]3O[C@H](CO)[C@@H](O)[C@H](O)[C@H]3O)ccc2Cl)cc1; value = 95.6%
Structure (SMILES) = COc1cc(NS(=O)(=O)c2ccc(N)cc2)ncn1; value = 99.5%
Structure (SMILES) = O=C1NC(=O)c2c1c1c3ccccc3[nH]c1n1cncc21; value = 110%
Structure (SMILES) = OCC(O)CN1CCN(c2ccccc2)CC1 (racemic); value = 102%

Series 2
Cell line: HaCaT
Tested at: 100 µM
Time: 18 h
Measurement: viability
Compound = O=C1c2cccc3c2[C@H](CCC3)CN1[C@@H]1CN2CCC1CC2; value = 53.9%
Compound = N#C[C@@H]1CCCN1C(=O)CNC12CC3CC(CC(O)(C3)C1)C2; value = 99.1%
Compound = COCCc1ccc(OCC(O)CNC(C)C)cc1 (stereo not drawn); value = 96.3%
Compound = COc1ccnc(C[S+]([O-])c2nc3ccc(OC(F)F)cc3[nH]2)c1OC (stereo not drawn); value = 95.3%
Compound = CC(=O)[C@@]1(O)CC[C@H]2[C@@H]3C[C@H](C)C4=CC(=O)C=C[C@]4(C)[C@@]3(F)[C@@H](O)C[C@@]21C; value = 108%
Compound = CC(C)OC(=O)C(C)(C)Oc1ccc(C(=O)c2ccc(Cl)cc2)cc1; value = 79.8%
Compound = C[C@H](CCC(=O)O)[C@H]1CC[C@H]2[C@@H]3CC[C@@H]4C[C@H](O)CC[C@]4(C)[C@H]3C[C@H](O)[C@]12C; value = 94.4%
Compound = CC#CCn1c(N2CCC[C@@H](N)C2)nc2c1c(=O)n(Cc1nc(C)c3ccccc3n1)c(=O)n2C; value = 58.9%
Compound = Nc1ncnc2c1ncn2[C@@H]1O[C@H](COP(=O)(O)O)[C@@H](O)[C@H]1O; value = 108%
Compound = CCCC1O[C@@H]2C[C@H]3[C@@H]4CCC5=CC(=O)C=C[C@]5(C)[C@H]4[C@@H](O)C[C@]3(C)[C@]2(C(=O)CO)O1 (stereo partly drawn); value = 60.7%
Compound = Cc1coc2c1C(=O)C(=O)c1c-2ccc2c(C)cccc12; value = 33.4%
Compound = O=C(CS(=O)(=O)Cc1ccccc1)N1CCOCC1; value = 116%

Series 3
Structure (SMILES): CO[C@H]1CC[C@H](CNc2ccc(S(=O)(=O)NC(=O)c3ccc(N4CCN(CC5=C(c6ccc(Cl)cc6)CC(C)(C)CC5)CC4)cc3Oc3cnc4[nH]ccc4c3)cc2[N+](=O)[O-])CC1
Method: competition with immobilised ligand
Tested at: 1 µM
Measurement: remaining binding
target = Ribosomal protein S6 kinase alpha-3, C-terminal kinase domain (RPS6KA3, Homo sapiens, UniProt P51812); test = cell-free assay; value = 100%
target = LTK (Homo sapiens, UniProt P29376); test = cell-free assay; value = 100%
target = CAMK2D (Homo sapiens, UniProt Q13557); test = cell-free assay; value = 96%
target = NEK7 (Homo sapiens, UniProt Q8TDX7); test = cell-free assay; value = 82%
target = NEK4 (Homo sapiens, UniProt P51957); test = cell-free assay; value = 100%
target = DAPK3 (Homo sapiens, UniProt O43293); test = cell-free assay; value = 68%
target = IRAK3 (Homo sapiens, UniProt Q9Y616); test = cell-free assay; value = 100%
target = WNK4 (Homo sapiens, UniProt Q96J92); test = cell-free assay; value = 67%
target = FLT3 (Homo sapiens, UniProt P36888, K663Q); test = cell-free assay; value = 91%
target = Myosin-IIIb (MYO3B, Homo sapiens, UniProt Q8WXR4); test = binding; value = 69%
target = RIPK4 (Homo sapiens, UniProt P57078); test = cell-free assay; value = 65%
target = Cyclin-dependent kinase 4, with cyclin D3 (CDK4, Homo sapiens, UniProt P11802); test = cell-free assay; value = 100%
target = WEE2 (Homo sapiens, UniProt P0C1S8); test = cell-free assay; value = 81%
target = CDK11A (Homo sapiens, UniProt Q9UQ88); test = binding; value = 95%
target = CSNK1E (Homo sapiens, UniProt P49674); test = cell-free assay; value = 88%

Series 4
Compound: O=C1Nc2ccc(Cl)cc2C1=Cc1cc(Cl)c(O)c(Cl)c1
Read-out: cell-free assay
Tested at: 0.5 µM
Measurement: remaining signal
target = Cyclin-dependent kinase 2, with cyclin A (CDK2, Homo sapiens, UniProt P24941); value = 99.5%
target = RPS6KB2 (Homo sapiens, UniProt Q9UBS0); value = 98.2%
target = GRK5 (Homo sapiens, UniProt P34947); value = 95.8%
target = PNCK (Homo sapiens, UniProt Q6P2M8); value = 94.2%

Repeated from above (series 3):
target = Myosin-IIIb (MYO3B, Homo sapiens, UniProt Q8WXR4); test = binding; value = 69%
target = WEE2 (Homo sapiens, UniProt P0C1S8); test = cell-free assay; value = 81%
